Results pooled from the literature.
Compare with care: the assays were run in different laboratories. Several values in a cell are separate wells, animals, samples, runs or records. ± gives the spread as reported.
cyp121: Mycocyclosin synthase (cyp121, Mycobacterium tuberculosis, UniProt P9WPP7)

Protein sequences, listed by entry. Tags and fused reporters are not part of them. Residues count along the entry.
UniProt P9WPP7, whole entry: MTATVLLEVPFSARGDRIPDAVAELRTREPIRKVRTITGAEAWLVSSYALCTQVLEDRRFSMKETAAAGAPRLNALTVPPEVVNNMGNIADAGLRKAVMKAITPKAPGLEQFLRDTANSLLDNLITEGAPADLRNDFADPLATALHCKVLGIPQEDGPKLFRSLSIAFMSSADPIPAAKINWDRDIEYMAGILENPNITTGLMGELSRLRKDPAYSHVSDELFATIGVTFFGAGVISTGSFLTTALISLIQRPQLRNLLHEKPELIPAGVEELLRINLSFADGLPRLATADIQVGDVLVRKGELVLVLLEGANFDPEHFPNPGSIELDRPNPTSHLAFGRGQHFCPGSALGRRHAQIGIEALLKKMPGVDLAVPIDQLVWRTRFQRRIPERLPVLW
UniProt P35353, 24-415 limits assumed: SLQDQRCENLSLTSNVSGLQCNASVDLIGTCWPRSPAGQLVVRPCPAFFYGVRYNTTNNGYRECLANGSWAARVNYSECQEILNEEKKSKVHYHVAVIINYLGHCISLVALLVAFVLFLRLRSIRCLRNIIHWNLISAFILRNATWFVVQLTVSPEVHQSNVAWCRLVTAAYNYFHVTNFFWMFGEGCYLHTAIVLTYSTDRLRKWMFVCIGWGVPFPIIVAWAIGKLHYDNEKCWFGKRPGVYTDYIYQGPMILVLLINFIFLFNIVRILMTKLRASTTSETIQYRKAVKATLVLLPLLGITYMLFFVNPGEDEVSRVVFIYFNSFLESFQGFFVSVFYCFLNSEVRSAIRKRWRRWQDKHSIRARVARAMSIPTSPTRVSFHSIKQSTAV

For `CC(c1ccc2c(c1)Cc1cc(O)ccc1-2)n1ccnc1` (stereo not shown), the Kd was 5.3 ± 0.68 µM (cyp121; binding).
The CC50 of `O=C(Nc1ccc(F)cc1)C1C(=O)N(O)C(=O)c2cc([N+](=O)[O-])ccc21` (stereo not shown) is reported as over 50 µM (VeroE6-TMPRSS2).
`Cc1cc(SCc2sc(-c3ccc(C(F)(F)F)c(F)c3)nc2C)ccc1OCc1nn[nH]n1` gave a CC50 of over 33 µM (HEK293T; 18 h).
With `O=C(NCc1ccc(F)cc1)C1C(=O)N(O)C(=O)c2cc([N+](=O)[O-])ccc21` (stereo not shown) the CC50 was over 50 µM (VeroE6-TMPRSS2).
The parent fraction of `COCCN(CCOC)c1nc(C)nc2c(-c3c(OC)cc([76Br])cc3OC)c(C)nn12` is reported as under 35% (Corticotropin-releasing factor receptor 1 (Rattus norvegicus, UniProt P35353); TLC; rat, blood; intravenous, 1 h; reference: radioactivity).
`COc1cc2c(N(C)C)nc(NCCCN(C)C)nc2cc1OCCCCCN` gave a CC50 of 52.1 µM (human primary fibroblasts; cytotoxicity, CCK-8; 24 h).
`Cc1ccc(OCCN(C)C)cc1C(=O)N[C@H](C)c1cc(-c2ccn(C)n2)nc2ccccc12` has a viability of 99.2% and 100% (Vero E6 cells; 31.25 µM).
`NC[C@@H](NC[C@@H]1CCCN1C[C@@H](CO)NC[C@@H](NCCc1ccc(-c2ccccc2)cc1)c1ccccc1)c1ccccc1` gave an IC50 of over 24 µM (Klebsiella pneumoniae; bacterial growth; compound alone).
For `CCC(c1ccc(-c2ccc(F)cc2)c(F)c1)n1ccnc1` (stereo not shown), the Kd was 5.3 ± 1.2 µM (cyp121; binding).
The viability of `Cc1ccc(S(=O)(=O)Nc2cccc(C(=O)NC3CCN(c4ncnc5[nH]cnc45)CC3)c2)cc1Cl` is reported as 86.2% (A549-ACE2; 66.67 µM).
`NCCNCCSc1ccccc1` gave a CL/F of 192 mL/min/kg (Swiss albino mice, female, plasma; oral, 600 mg/kg).
`CN1C(=O)CCc2cc(C(=O)NCC=CS(C)(=O)=O)ccc21` gave an IC50 of over 10 µM (MRC-5; cytotoxicity).
With `C[C@@]12C3=C(C(=O)c4occ(c41)[C@@H](O)[C@@H]1O[C@@H]12)[C@@H]1CCC(O)[C@@]1(C)CC3` (stereo partly shown) the EC50 was 1.69 µM (MDA-MB-231; cytotoxicity, SRB; 72 h).
For `O=C(O)C(O)=CC(=O)c1cc(Oc2ccccc2)cc(Oc2ccccc2)c1`, the CC50 was over 50 µM (VeroE6-TMPRSS2).
`O=C(Oc1nsnc1N1CCCCC1)N1CCOCC1` has a viability of at least 97% (H292; trypan blue exclusion; up to 100 µM, 3 h).
The viability of `Cc1ccccc1S(=O)(=O)Nc1cccc(C(=O)NC2CCN(c3ncnc4[nH]cnc34)CC2)c1` is reported as 104% (A549-ACE2; 2.469 µM).
`COc1cccc(-c2cc(NC(=O)Nc3ccc(C(F)(F)F)cc3)ccc2OC)c1` has an efflux ratio of 0.092 ± 0.03 (Caco-2).
With `O=C(NCc1ccccc1)C1C(=O)N(O)C(=O)c2cc([N+](=O)[O-])ccc21` (stereo not shown) the CC50 was over 50 µM (VeroE6-TMPRSS2).
The CC50 of `N=C(N)NCCC[C@H](NC(=O)c1ccccc1)C(=O)N[C@@H](CCCCN)C(=O)N[C@@H](C(N)=O)c1ccc(OCc2ccccc2)cc1` is reported as over 50 µM (HeLa DENV2 protease reporter; CellTiter-Blue).
For `COc1ccc2c3c([nH]c2c1)[C@H](CC(C)C)N1C(=O)[C@H](CC(=O)OCc2ccccc2)NC(=O)[C@@H]1C3`, the CC50 was 49.6 ± 2.8 µM (A549; MTT; 72 h).
With `O=C(NC1CCN(c2ncnc3[nH]cnc23)CC1)c1cccc(NS(=O)(=O)c2ccc(Cl)cc2)c1` the viability was 91.5% (A549-ACE2; 22.22 µM).
`O=C(O)C(O)=CC(=O)C1(Cc2ccc(Cl)cc2)CCN(C(=O)C=Cc2ccccc2)CC1` gave a CC50 of over 50 µM (VeroE6-TMPRSS2).
The IC50 of `CC(CCN[C@H](CN[C@H](CO)CN1CCC[C@H]1CN[C@H](CN)c1ccccc1)c1ccccc1)c1ccccc1` (stereo partly shown) is reported as over 24 µM (Acinetobacter baumannii; bacterial growth; compound alone).
The CC50 of `O=C(O)C(O)=CC(=O)c1ccc2cc(O)c(O)cc2c1` is reported as over 50 µM (VeroE6-TMPRSS2).
For `[11CH3]Nc1ccc(C(=O)C2CCN(C3Cc4ccccc4CC3O)CC2)cc1` (single isomer, unassigned), the radioactivity uptake was 0.34 %ID/g (Sprague-Dawley rat, blood; intravenous, dose not given, 5 min).
For `C[C@]12CCC3=C(C(=O)c4occ5c4[C@]3(C)[C@H]3O[C@H]3C5=O)[C@@H]1CCC2=O`, the EC50 was 0.009 µM (MDA-MB-231; cytotoxicity, SRB; 72 h).
`COc1ccc(S(=O)(=O)Nc2cccc(C(=O)NC3CCN(c4ncnc5[nH]cnc45)CC3)c2)cc1` has a viability of 107% (A549-ACE2; 0.2743 µM).
With `O=C(Nc1ccccc1OS(=O)(=O)c1ccc(OC(F)(F)F)cc1)c1cnccn1` the viability was 82.2 ± 0.89% (HEK-293T; MTT; 100 µM, 24 h; reference: untreated).
The AUC(0-inf) of `CC1(C)CC[C@]2(C(=O)O)CC[C@]3(C)C(=CC[C@@H]4[C@@]5(C)CC[C@H](OC(=O)NCc6ccccc6)C(C)(C)[C@@H]5CC[C@]43C)[C@@H]2C1` is reported as 68.3 nmol·h/g (C57BL/6 mice, brain; intraperitoneal, 85 µmol/kg).
For `COCn1cc(-c2cc([C@@H](C)NC(=O)c3cc(OCCN(C)C)ccc3C)c3ccccc3n2)cn1`, the viability was 60.8% and 71.5% (Vero E6 cells; 125 µM).
The CC50 of `NC1CSC2(SC1)C1CC3CC(C1)CC2C3` (stereo not shown) is reported as 74.8 ± 1.2 µM (MDCK; cytotoxicity).
